# Assay results of several laboratories.
# Numbered parts are unrelated; each lists some results of a single study.
# Chain of UniProt Q06418 (whole entry, looked up): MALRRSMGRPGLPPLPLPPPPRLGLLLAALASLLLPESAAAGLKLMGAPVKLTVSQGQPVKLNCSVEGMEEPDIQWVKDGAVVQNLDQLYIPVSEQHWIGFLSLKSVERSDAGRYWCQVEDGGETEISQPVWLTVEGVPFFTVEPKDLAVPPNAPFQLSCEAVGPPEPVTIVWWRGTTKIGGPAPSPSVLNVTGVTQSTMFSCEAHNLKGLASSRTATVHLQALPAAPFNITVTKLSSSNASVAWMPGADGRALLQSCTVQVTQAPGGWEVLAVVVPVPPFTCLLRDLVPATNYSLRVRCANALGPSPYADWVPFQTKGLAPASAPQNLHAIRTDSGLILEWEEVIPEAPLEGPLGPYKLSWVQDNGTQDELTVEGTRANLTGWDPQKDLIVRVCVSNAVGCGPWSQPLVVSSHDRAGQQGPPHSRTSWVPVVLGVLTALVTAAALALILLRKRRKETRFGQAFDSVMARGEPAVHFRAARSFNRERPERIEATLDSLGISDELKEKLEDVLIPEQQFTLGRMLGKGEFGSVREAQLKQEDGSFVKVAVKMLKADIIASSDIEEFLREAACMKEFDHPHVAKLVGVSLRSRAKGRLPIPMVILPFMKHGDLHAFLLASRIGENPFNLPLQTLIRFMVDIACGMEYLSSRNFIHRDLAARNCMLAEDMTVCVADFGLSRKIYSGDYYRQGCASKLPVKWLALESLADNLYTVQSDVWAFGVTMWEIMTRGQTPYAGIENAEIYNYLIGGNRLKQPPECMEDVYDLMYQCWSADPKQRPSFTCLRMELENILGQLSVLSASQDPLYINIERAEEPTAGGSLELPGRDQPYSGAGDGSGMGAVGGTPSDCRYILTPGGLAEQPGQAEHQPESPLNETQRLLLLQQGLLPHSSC

# Block 1 — method: aptamer microarray, sandwich; molecule type: DNA with 2'F-ANA; medium: in vitro; concentration: 200 nM; together with: Cy3 exosite-II aptamer, 400 nM; direction: higher = stronger binding; oligonucleotide: GGTTGGTGTGGTTGG
# Target: Prothrombin, mature alpha-thrombin (F2, Homo sapiens, UniProt P00734)
# Notes: whole 15-mer aptamer, many near background
Modification,mean fluorescence intensity [a.u.]
2'F-ANA at 2 3 6 9 11 12 13,715
2'F-ANA at 3 6 8 11 13 14 15,512
2'F-ANA at 2 3 4 8 9 10 11 12,337
2'F-ANA at 2 3 6 7 8 9 14,354
2'F-ANA at 1 2 6 8 10 12 13 14 15,51.4
2'F-ANA at 1 3 7 8 9 11 12 13 14 15,141
2'F-ANA at 1 4 5 7 9 11 14,50.1
2'F-ANA at 1 2 4 5 6 8 11 14 15,47.1

# Block 2 — method: RNA Bind-n-Seq; molecule type: RNA; medium: in vitro; concentration: not given; relative to: input RNA pool; direction: higher = stronger binding
# Target: RING finger protein unkempt homolog, zinc fingers 1-6, GST-SBP tag (UNK, Homo sapiens, UniProt Q9C0B0, residues 30-357)
# Chain of UniProt Q9C0B0 (30-357, looked up): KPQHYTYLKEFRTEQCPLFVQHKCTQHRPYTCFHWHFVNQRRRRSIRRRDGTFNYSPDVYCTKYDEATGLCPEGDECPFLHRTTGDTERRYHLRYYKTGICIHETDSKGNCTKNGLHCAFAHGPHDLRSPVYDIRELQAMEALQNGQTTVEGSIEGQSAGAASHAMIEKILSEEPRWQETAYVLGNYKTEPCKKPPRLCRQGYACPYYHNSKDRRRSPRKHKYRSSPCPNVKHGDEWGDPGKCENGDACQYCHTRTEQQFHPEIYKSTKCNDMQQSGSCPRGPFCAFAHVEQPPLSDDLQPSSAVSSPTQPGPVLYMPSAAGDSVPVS
# Notes: RNA with constant flanks, human and mouse sites, ends assumed
# Constant ends, left off below: GGGAGUUCUACAGUCCGACGAUC … CAACAGAGGAUUGAGCAUCA
Oligonucleotide,bound/input enrichment
UACCUCCUCAGCGAUGGGACCUGCAAGUGCGGUCUGGAGUGUCCACUUAAUGUACCCAAGGUUUUCAACUUUGACCCUCUGGCCCCGGUGACCCCGGGUGGGGCUGGGGUGGGGCCUGCA,0.14 ratio
AUCAGAGAAGCCAAAGAGAAACUGGAGGCAGAGAUGGAAGCAGCUAGACAUGAACACCAGUUAAUGCUAAUGAGGCAAGAUCUAAUGAGACGUCAAGAAGAACUCAGACGUUUGGAAGAA,0.162 ratio
CUGUAUCUUUCUGCUAUUCGAAAGAUCCCAGCCUUGACUGAAAAUGAUCCUGAAACUUGGAUAGUUUGUAAUUUUUCUGUGGAUCAUGAUAGUGCUCCUCUGAACAAUCGAUGUGUCCGU,0.315 ratio
AUAAUUGGGGAUGAACAUUUUUGAAGAUUUAUUCUUUUGUGUUGCUGGGGUGUAUACAUUUAUGUCUUUGUGAAAUACACUGGUGGUGUCCUUCUUAAAAACUUUUGAAAUAAAAAAAGA,0.5 ratio
UUGCUGUCCAAAAUUGAUGGCGUGGAGCAGCUAAACAACAUCCUAGUCAUUGGAAUGACCAAUAGACCAGAUCUGAUAGAUGAGGCUCUUCUUAGACCUGGAAGACUGGAAGUUAAAAUG,0.235 ratio
GGAUAUUUCACAAAACCUCCGAUUGCAGCUCAUGCUUCAAGAUCUGCAGAAUCUAAGACUAUAGAAUUUGGGAAAACUAAUUUUGUUCAGCCCAUGCCGGGUGAAGGAUUAAGGCCAUCU,0.322 ratio
UAUUACACUCAGAUGCUUCUCCUGGCCGCAGUUGUAGGAGUGGCUUGCUUUCUCUAUGGAUAUCUUAAUCAAGAUAACUGUACAUGGAGCAAAGAAGUUUGUCAUCCUGAUAUUGGUGGC,0.247 ratio
AGGAUGGCACAACUUCUGGAUCUCUCUGUGGAUGAGUCAGAGGCUUUCCUCUCGAAUCUAGUCGUUAACAAGACCAUCUUUGCUAAAGUAGACAGGUUGGCUGGAGUCAUCAACUUCCAG,0.154 ratio

# Block 3 — method: RNA Bind-n-Seq; molecule type: RNA; medium: in vitro; concentration: 1 µM; notes: whole 134-nt RNA, ends assumed; together with: 150 mM KCl; relative to: input library; direction: higher = stronger binding
# Target: Ras GTPase-activating protein-binding protein 1, C-terminal RGG region (G3BP1, Homo sapiens, UniProt Q13283)
# Chain of UniProt Q13283 (whole entry, looked up): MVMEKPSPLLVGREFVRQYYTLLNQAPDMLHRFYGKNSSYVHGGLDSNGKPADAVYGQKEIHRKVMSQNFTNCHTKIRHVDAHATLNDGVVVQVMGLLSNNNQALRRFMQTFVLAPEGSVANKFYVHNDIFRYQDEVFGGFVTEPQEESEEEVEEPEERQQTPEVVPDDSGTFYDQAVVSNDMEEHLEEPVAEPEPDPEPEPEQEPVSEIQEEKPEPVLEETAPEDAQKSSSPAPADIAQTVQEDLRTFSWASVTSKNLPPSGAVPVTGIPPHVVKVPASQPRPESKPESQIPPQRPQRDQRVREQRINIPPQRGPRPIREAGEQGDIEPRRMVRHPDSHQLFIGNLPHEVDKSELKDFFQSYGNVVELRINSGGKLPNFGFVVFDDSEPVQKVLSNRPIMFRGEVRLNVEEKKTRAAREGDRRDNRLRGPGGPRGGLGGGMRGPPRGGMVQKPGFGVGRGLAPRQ
# Constant ends, left off below: GGGAGUUCUACAGUCCGACGAUC … UGGAAUUCUCGGGUGUCAAGG
Oligonucleotide,log2 enrichment
AAGUCCUGUGCUACACAUCGUAUGUACCGAAUCGGGAAAAGGGGAAAAGGAAAAGGGAAAGUAUUAUGUUACGCCGUUCGGAUCUGCACU,-1.4
AGUCCUGUGCUACACAUCGUAUGUACCGAAUCGGGAAAAAGGGAAAAAGGGAAAAAGGAAAGUAUUAUGUUACGCCGUUCGGAUCUGCAC,-1.77
GCAGGAAGUAAAAACAAAUGGAAAUGCUUCGGUUAGUGGCAGGGGUGGGGGUUGCUAAGGAAAGGGUGGGAUGGGAGUGGGUAAAGAGUU,1.41
AAGUCCUGUGCUACACAUCGUAUGUACCGAAUCAAACCCAAACCCAAAUUUUUAAAAAAGUAUUAUGUUACGCCGUUCGGAUCUGCACUU,-0.919
AGGCCCUGGUGGCAUGCGGGGAGGAAGAGGUGGCCUCAUGGAUCGUGGUGGUCCCGGUGGAAUGUUCAGAGGUGGCCGUGGUGGAGACAG,2.36
UCCUCAAGUCCUGUGCUACACAUCGUAUGUACCGAAUCGGUGGUGGAAAGGAAAGUAUUAUGUUACGCCGUUCGGAUCUGCACUUCCAGC,-0.612
GCCGGAAGUAAAAACAAAUGGAAAUGCUUCGGAUAGUGGCAGGGGUGGGGGUUGCUAAGGAAAGGGUGGGAUGGGAGUGGGUAAAGAGUU,1.39
GUCCUGUGCUACACAUCGUAUGUACCGAAUCAAACCCCCAAAUUUUUAAAUUUUUAAAAAAGUAUUAUGUUACGCCGUUCGGAUCUGCAC,-0.609

# Single results of other studies
SMILES,target,observed,mode,concentration,relative to,endpoint,result
CC[n+]1c(/C=C/N(C)c2ccccc2)n(-c2ccccc2)c2ccc(-c3nc4ccccc4s3)cc21,"Tyrosine-protein kinase receptor TYRO3 (TYRO3, Homo sapiens, UniProt Q06418)",enzyme activity,inhibitor,0.5 µM,control,remaining activity,103%

# Excerpt of the above (block 2):
Oligonucleotide,bound/input enrichment
UUGCUGUCCAAAAUUGAUGGCGUGGAGCAGCUAAACAACAUCCUAGUCAUUGGAAUGACCAAUAGACCAGAUCUGAUAGAUGAGGCUCUUCUUAGACCUGGAAGACUGGAAGUUAAAAUG,0.235 ratio
GGAUAUUUCACAAAACCUCCGAUUGCAGCUCAUGCUUCAAGAUCUGCAGAAUCUAAGACUAUAGAAUUUGGGAAAACUAAUUUUGUUCAGCCCAUGCCGGGUGAAGGAUUAAGGCCAUCU,0.322 ratio
